Results pooled from the literature.
Parts stem from different laboratories: compare values within a part only. Positions count from the first letter of the parent shown.

Block 1
Target: RNA binding protein fox-1 homolog 2, RRM domain, GST-SBP tag (RBFOX2, Homo sapiens, UniProt O43251-10, residues 100-194)
Method: RNA Bind-n-Seq
Molecule type: RNA
Medium: in vitro
Tested at: 365 nM
Notes: natural RNA segment, single round, ends assumed
Reference: no-protein control
Direction: higher = stronger binding
Constant ends, left off below: GGGAGUUCUACAGUCCGACGAUC … UGGAAUUCUCGGGUGCCAA
Construct (chain): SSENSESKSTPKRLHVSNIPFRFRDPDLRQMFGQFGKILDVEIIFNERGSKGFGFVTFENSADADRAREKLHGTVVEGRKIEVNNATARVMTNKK
| Strand | RBNS enrichment (R) |
| --- | --- |
| UUAGCCCUCUGCCUCUCCAAAGCAUCAGAACCACCUUCAGUCUGGAGAAGGGGAAGCCUCUUGGAGACAGAGGGUUUCACCUUAUAUGACCUCAAGAGAAACAGCCUAAG | 0.859 |
| UCCUAUCUUUUAUUUCAUUCAUAUCCUCCGCCCUUUUUGUCCUAGAGUGAGAGUUUGGAAGGUGUCCAAAUUUAAUGUAGACAUUAUCUUUUGGCUCUGAAGAAGCAAAC | 0.984 |
| GCCAUAAUCCUUCUGAAUUGUUGGCACUAAGUAAUGGGAUUUGGCCCAGUAAGUAUGACGGUCGUGUCGCCUAACCAACGCAGAGCAGUGCUUUUUGUGUGGCUGAAGCG | 0.433 |
| CUCCACUCACCAGCUGUUGAGUCUGUGCGGAAGACAGGAUCUUAUUACUUCAAUGGCAGCAGCGAUCAAGAAAGUUCUCCAACCUUGAACAGCCAAAUGGAUUGACUACA | 0.379 |
| CCUGUGCCCAAUUUUGGAGUUUGAGAGGGUUGUUGGUAAUAAAUGUAUGAUGUACACUUCAAACCUAGUCGUGUUUCAUGUAAGGCGUGUUUUUGGAAUCUGUUUGCAGA | 1.1 |
| GCAUUCCAGGUAACAGGUGUGUAUGUAAAGUUAAAAAUAGGCUUUUUAGGAACUCACUCUUUAGAUAUUUACAUCCAGCUUCUCAUGUUAAAUAUUUGUCCUUAAAGGGU | 0.914 |
| AUUUAACUUCUAAUUCAGUAUGAUGCUGGUUUCAUACUGGCAAAUGGUUCCCCACUCUAAUUCCAUUACUGAAGAUUAAGCCCAGGCAGGGACUUGCUCAUUCUAGGCAA | 0.358 |
| CUUUCAAGGUACAAAAGUAUGUCUUUUAAAAUGGAAGUAACGUUUGUUUAGCUAGUGAAUGUGACAAUAUAUUUUAUGUAUAUAAUGAGUCUAAUGUAAUUUUGAUCAAC | 1.08 |

Block 2
Target: Hepatocyte nuclear factor 3-alpha (Foxa1, Mus musculus, UniProt P35582, residues 1-468, full length assumed)
Chain of UniProt P35582 (whole entry, looked up): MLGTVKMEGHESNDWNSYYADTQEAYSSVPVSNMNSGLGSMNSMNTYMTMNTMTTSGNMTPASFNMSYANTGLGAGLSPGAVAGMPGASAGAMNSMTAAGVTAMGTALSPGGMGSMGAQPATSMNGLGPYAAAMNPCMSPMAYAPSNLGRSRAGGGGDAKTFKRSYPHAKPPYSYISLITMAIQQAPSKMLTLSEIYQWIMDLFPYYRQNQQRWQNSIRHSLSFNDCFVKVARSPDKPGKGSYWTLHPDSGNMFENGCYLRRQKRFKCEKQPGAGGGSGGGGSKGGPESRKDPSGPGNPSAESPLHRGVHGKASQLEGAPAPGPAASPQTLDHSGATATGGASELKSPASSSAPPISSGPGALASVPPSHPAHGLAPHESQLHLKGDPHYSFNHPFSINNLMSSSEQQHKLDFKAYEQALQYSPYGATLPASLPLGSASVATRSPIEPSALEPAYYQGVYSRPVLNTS
Method: EMSA with sequencing
Molecule type: double-stranded DNA, one strand shown
Medium: in vitro
Tested at: 10 and 20 nM
Notes: whole designed probe, mean of two concentrations, ends assumed
Reference: negative control set to 0
Direction: higher = stronger binding
Constant ends, left off below: GTGAGCGGTGCCCATTGATGGGGAAC … TTTCACTGGGATCGTGGGGAC
| Strand | normalised bound fraction [ratio] |
| --- | --- |
| ATCTTCCCCCTCTTCCTTGCCCCACCAGCTCACCTTCCCGGGTTATTTGCAGATAGGAAAATAAATAAAGCCGGCATTCGTTAACCCTCTTCACGCGCATACTGCCAAAGTAAACAGATGAATCATGGTCCTTTGGCGACGCCAGGCTCCGGGAGAGCAAAGCACCGTGTCAGGGCCATGATCCGGGGTGGCC | 0.49 |
| CACATAGACTACAGTCTATGAAAAACATATTCATTTTTTAGGATAATATATAAGATCTCTGAAATGACAATTCACACAAAAGTAATAAAAATGTAAACAAGCATCAAAACTGATACAACAGATCACACTAATTGCCAAAAGTGCAGAAAGAGAAAAATTGGGTATAACAGCAATAACCTTATAAAATGTCAGA | 0.295 |
| GGCCATAAATACATATTCATATACATTTGACTAAATGCCACATATGCTTTAACATTTTCTTTTAAGAAAATGTAACACTTTGAAGATTCAGTGTAAACATCCAAATAGTAAACTAAATGATTTCCTTAGCTCCTTGACATATCCTAGAGTATCTATTTTAGTTTATAAATATGATTTTAAAAAATTAGGTACA | 0.225 |
| GGGAATTTTTATATAATACCAACTAATGAGTGTAAAACAAAGAAACAAAAAGAAACCAGTCCACAGAAACCAGAGTTGAGGCATGTGACTCAGTGTTGACTCTCAAGGTGATTACCCTGTGAAACTATGTACTGTTCTTGCATAACAATTTTTGGAATCTTTTGCTTTGAAATGCCTTCAGAATCAGTTCATG | 0.0643 |
| ATCTTCCCCCTCTTCCTTGCCCCACCAGCTCACCTTCCCGGGTTATTTGCAGATAGGAAAATAAATAAAGCCGGCATTCGTTAACCCTCTTCTGGCGCACAACGTGGTCCGTATTTGTTGAATCATGGTCCTTTGGCGACGCCAGGCTCCGGGAGAGCAAAGCACCGTGTCAGGGCCATGATCCGGGGTGGCC | 0.346 |
| ATCTTCCCCCTCTTCCTTGCCCCACCAGCTCACCTTCCCGGGTTATTTGCAGATAGGAAAATAAATAAAGCCGGCATTCGTTAACCCTCTTCACGCGCATACTGCTGTTTGCTCTGGATCTAACATGGTCCTTTGGCGAGGCGTGGCTCCGGGAGAGCAAAGCACCGTGTCAGGGCCATGATCCGGGCTCGCC | 0.35 |
| TGCGGTGACGGACAGGGTTGGCGTGGAACCATTCCCCGCCCCTTTTACCAGCCTTTATGGGACCGATGAGACAACTCTTTAACTCTCCTTTGGGTGTTTACCTAAAATTTATTGGCTCTGTAAACAGTATTAATCACAGTAGTATTAACCTTCCCTGGAGCGCTTCCGAGTGTAAATGGCAGTTCTTGGCACT | 0.27 |
| GCCGTTGGTTCATGCTGTGGCTACTGCCAATTCTTTAAGTGTTCCCTCACCTCAAATCTTTGATGCACGAGGTCCAGCAGTCGTCACTACTAAGTCATCTCTGAGACATGTAAATGTTTGTGAAATGAGTAATAACCAGGATGGTACAATTAAGCTCCCCATGAGCTCCTCCCCACTGCCACCTCAGGCCTCA | -0.0449 |

Block 3
Target: CCND1, cyclin fold, Cln2 fusion (human)
Method: yeast growth competition, sequencing
Medium: yeast
Notes: weak parent motif
Reference: not given
Direction: higher = stronger binding
Starting sequence: viral docking peptide; PTARRRLLHDLDT
| Change | normalised enrichment score |
| --- | --- |
| L11A | -0.0437 |
| H9A | 0.228 |
| R6A | 0.51 |
| H9F | 3.25 |
| D10A | -0.485 |
| R5K H9F | 0.883 |
| L7A | -0.114 |
| L8F | 1.57 |
| R5A R6A L7A L8A | -0.125 |
| T2A | -0.437 |

Further values, each from its own experiment
Method: cross-linking MS
| Substance | partner | medium | notes | with | endpoint | result |
| --- | --- | --- | --- | --- | --- | --- |
| PSME1 (Homo sapiens, UniProt Q06323) | PSME2 (Homo sapiens, UniProt Q9UL46) |  | hits only |  | interaction screen | cross-linked |
| HSPA1L (Homo sapiens, UniProt P34931) | SLC25A24 (Homo sapiens, UniProt Q6NUK1) | cell fractions |  | DMTMM | cross-linked residues | K552 to E420 |
| ITSN1 (Homo sapiens, UniProt Q15811) | EPS15L1 (Homo sapiens, UniProt Q9UBC2) |  | hits only |  | interaction screen | cross-linked |
| DLD (Homo sapiens, UniProt P09622) | LANCL3 (Homo sapiens, UniProt Q6ZV70) | cell fractions |  | DSSO | cross-linked residues | K346 to K199 |

Repeated from above (block 3):
| Change | normalised enrichment score |
| --- | --- |
| L7A | -0.114 |
| R5K H9F | 0.883 |
